Results gathered from unrelated publications.
A part holds a random share of what one study measured.

Sample 1
Target: Centromere-binding protein 1, full length, His-tagged (CBF1, Saccharomyces cerevisiae, UniProt P17106, residues 1-351)
Sequence of UniProt P17106 (whole entry, looked up): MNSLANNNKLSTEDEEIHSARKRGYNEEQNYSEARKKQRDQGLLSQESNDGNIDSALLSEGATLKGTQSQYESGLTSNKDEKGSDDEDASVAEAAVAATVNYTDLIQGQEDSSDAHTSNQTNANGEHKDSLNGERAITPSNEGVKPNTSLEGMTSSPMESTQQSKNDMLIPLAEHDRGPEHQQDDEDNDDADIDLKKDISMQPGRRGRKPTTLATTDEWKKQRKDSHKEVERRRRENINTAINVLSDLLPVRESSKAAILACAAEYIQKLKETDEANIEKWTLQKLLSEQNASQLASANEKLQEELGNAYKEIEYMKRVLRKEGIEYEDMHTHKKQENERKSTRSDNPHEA
Method: competition protein-binding microarray
Molecule type: double-stranded DNA, one strand shown
Sample: in vitro
Concentration: 2 µM
Setting: whole 60-bp probe, lowest competitor level
Added: Pho4 competitor, 0.05 µM
Reading: higher = stronger binding
Endpoint: fluorescence intensity
ATTGTTGATGCTCTTGGCATGACAGAGGCGACGCCGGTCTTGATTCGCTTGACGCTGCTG: 52 a.u.
CCTTCGACCTTCCATCACGTGCAAATAGCTTAATATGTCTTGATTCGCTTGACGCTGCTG: 4630 a.u.
TGCGCAACAACTTGTCCGGTGGGTGTATGTCTAGAAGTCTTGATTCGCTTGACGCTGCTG: 63.6 a.u.
CTAACGAAGGTTTTTCACGTGCGCTACAAGCCAAGTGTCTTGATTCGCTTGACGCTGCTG: 972 a.u.
ACCAGACGGAGTTTGCACGGGAGTGTTGTTGGGCGCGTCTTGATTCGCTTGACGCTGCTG: 87.5 a.u.
CAGCTTCAACCAAATAACGTGGAGGTTCAGGAACAAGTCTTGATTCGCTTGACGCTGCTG: 92.4 a.u.
CGGGGTTAAGTTTTTCACGTGTCATGCTCGCAGCAGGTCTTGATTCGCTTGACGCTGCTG: 737 a.u.

Sample 2
Target: Sal-like protein 4, full length isoform A (SALL4, Homo sapiens, UniProt Q9UJQ4, residues 1-1053)
Sequence of UniProt Q9UJQ4 (whole entry, looked up): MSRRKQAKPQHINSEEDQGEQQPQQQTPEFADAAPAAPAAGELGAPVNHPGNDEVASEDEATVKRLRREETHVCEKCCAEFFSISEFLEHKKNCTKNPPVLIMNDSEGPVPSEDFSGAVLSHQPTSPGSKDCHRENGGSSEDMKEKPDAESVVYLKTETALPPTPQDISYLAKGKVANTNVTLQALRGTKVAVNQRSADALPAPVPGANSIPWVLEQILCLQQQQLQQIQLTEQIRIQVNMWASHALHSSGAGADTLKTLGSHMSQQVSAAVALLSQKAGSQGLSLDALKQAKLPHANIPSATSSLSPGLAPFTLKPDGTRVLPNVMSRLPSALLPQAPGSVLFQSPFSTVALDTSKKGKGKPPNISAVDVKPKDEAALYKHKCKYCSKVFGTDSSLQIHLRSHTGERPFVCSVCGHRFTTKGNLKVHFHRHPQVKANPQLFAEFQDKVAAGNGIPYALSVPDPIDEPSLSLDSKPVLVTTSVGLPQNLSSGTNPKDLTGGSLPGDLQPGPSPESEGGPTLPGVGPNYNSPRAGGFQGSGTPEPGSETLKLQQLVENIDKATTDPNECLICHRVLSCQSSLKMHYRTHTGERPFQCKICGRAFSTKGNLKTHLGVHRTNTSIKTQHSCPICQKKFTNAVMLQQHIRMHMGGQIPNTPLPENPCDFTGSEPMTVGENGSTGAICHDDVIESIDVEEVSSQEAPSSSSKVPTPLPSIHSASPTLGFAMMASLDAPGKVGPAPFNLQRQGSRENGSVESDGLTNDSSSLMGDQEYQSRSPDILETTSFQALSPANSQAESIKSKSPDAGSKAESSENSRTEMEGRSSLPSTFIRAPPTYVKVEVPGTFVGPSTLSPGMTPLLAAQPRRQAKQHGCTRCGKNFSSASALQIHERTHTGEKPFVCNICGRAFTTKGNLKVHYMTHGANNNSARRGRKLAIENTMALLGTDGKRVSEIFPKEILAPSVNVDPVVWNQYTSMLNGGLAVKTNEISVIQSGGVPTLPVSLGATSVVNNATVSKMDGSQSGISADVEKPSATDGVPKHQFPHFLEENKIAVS
Method: universal PBM
Molecule type: double-stranded DNA, one strand shown
Sample: in vitro
Concentration: 600 nM
Setting: 8-mer, flanks averaged, mean of replicates
Reading: higher = stronger binding
Endpoint: E-score
GGTATAGA: 0.145
CGTTAAAG: 0.00101
ACCAAGGT: -0.0931
GCAGCACA: -0.182
CCCCTGAG: -0.311
AGGCGCCG: -0.315

Sample 3
Target: Histone acetyltransferase KAT6A, both winged helices, GST fusion (KAT6A, Homo sapiens, UniProt Q92794, residues 1-181)
Method: protein binding microarray
Molecule type: double-stranded DNA, one strand shown
Sample: in vitro
Concentration: not given
Setting: 8-mer, flanks averaged, mean of 2 arrays, mostly near background
Relative to: not given
Reading: higher = stronger binding
Endpoint: E-score
Target sequence (chain): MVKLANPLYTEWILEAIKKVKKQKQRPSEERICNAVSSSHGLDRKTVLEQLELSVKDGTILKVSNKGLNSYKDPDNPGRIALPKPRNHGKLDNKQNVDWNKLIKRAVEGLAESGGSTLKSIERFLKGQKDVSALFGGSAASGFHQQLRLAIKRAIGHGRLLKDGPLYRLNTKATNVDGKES
CTTCCTCC: -0.125
AAAGCTTT: 0.276
CGATGAAA: -0.0349
ACGAGCGC: 0.293
CACAACGG: 0.131

Other studies, line by line
PhoQ, residues 284 288 289 292 302 303 TVTVVA — fold induction (PhoP, residues 12 14 15 18 19 SQCLL (Escherichia coli, UniProt P23836); Sort-seq, item: YFP reporter; E. coli; PhoQ-PhoP variant library, added: 10 µM Mg2+; relative to: high Mg2+ state, higher = stronger signaling): 12.1

For quick reference, copied from above (sample 1):
CGGGGTTAAGTTTTTCACGTGTCATGCTCGCAGCAGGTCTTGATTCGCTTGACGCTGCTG: 737 a.u.
